Experimental data collected from several papers.
Each numbered part is a random draw from the data of one study; scales do not carry over between parts. Substitutions count along the parent as printed.

Block 1
Target: RING finger protein unkempt homolog, zinc fingers 1-6, GST-SBP tag (UNK, Homo sapiens, UniProt Q9C0B0, residues 30-357)
Technique: RNA Bind-n-Seq
Form: RNA
Medium: in vitro
Concentration: not given
Setting: RNA with constant flanks, human-mouse chimeric sites, ends assumed
Baseline: input RNA pool
Direction: higher = stronger binding
Constant ends, left off below: GGGAGUUCUACAGUCCGACGAUC … CAACAGAGGAUUGAGCAUCA
Residues (chain): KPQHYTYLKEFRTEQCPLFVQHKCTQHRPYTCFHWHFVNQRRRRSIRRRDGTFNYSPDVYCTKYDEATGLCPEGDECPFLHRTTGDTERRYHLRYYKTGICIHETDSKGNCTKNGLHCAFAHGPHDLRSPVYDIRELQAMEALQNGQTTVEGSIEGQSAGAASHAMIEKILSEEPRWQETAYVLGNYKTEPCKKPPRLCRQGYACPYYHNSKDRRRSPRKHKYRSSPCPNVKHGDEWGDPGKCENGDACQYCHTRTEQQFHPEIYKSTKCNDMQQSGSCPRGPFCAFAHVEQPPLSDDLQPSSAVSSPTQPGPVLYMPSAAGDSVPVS
For `CUGGGUAUCAUCUCUCGUGCUGUUAGACACCUGUUCAAGAGUAUUGAUGAGAAAAAGACCUCAGCGAUUAAAAACGGGCUGCCCCCUCCUGAAUUCAAAGUGAAUGCCCAGUUCCUAGAG`, the bound/input enrichment was 0.175 ratio.
With `UCAACUGACAACAUCAAAUACCAGCCUAAGGGGGGUCAGGUACAAAUUGUUACCAAGAAAAUAGACCUAAGCCAUGUGACAUCCAAAUGUGGCUCUCUGAAGAACAUCCGCCACAGGCCA` the bound/input enrichment was 0.395 ratio.
`AGGAGGAGGUUAAAGGGUGAAAAUGGGGUGGAAGACUGUGUCAUGGCUCUGGAGACACUGUUCAGUGUCCUGCUUUCUCUGUGCAGACUGAUGGCCCCUUACACGCCUUUUCUCACUGAG` gave a bound/input enrichment of 0.0599 ratio.
For `GUAGCUGGGACUACAGAAAUGCUGGUAAUUUCAGUCACUUGCUGAUGACUUCUGAUGACCUAGCAAAUAAUGCCACAGUUGACUGCUGAGAAGAUACUUCUGAGGACCCACGUCUAAGGU`, the bound/input enrichment was 0.206 ratio.
`GCAGGAUCUUCUAAAUACCAGUGGGACAUUAUGAAAUCCCUUGGGCUCUCUGAUGACGACAUAGUGAAGUUUUCUGAAGCAGAGCACUGGCUUGAUUAUUUCCCGCCACUGGCCGUUCAG` gave a bound/input enrichment of 0.122 ratio.
With `CAGCCUCAGAGCCCAGACUUCCUGGAUAUUACCAACCCUAAAGCGGUAUUAGAAAAUGCAUUGAGAAACUUUGCCUGUCUGACGACUGGGGAUGUGAUUGCUAUCAACUACAAUGAGAAG` the bound/input enrichment was 0.288 ratio.
For `CUGGCCUGGCCCUCCCCAGGGGCCUCCUUUCGUAUAGUAACUGUCAGUGCAUCAGAUACUUUCAGCUGCAACUCCCUACUGGGUGGGGCACCCAUUUCAGGCAGAAGUUGGUGCCCCCCU`, the bound/input enrichment was 0.0948 ratio.
The bound/input enrichment of `GAUCAUGGAACCAGAAUAGAAAUGAAGAUGAGAUUACCCAGACGAGCCAAAACAGCUGCGCUACAGAAAAGUAAACUUAACCUUGCAGAGUUCCUUAAUGAAGAUACAAGUUAAGAGAGC` is reported as 1 ratio.

Block 2
Target: CCND2, cyclin fold, Cln2 fusion (human)
Technique: yeast growth competition, sequencing
Medium: yeast
Setting: weak parent motif
Baseline: not given
Direction: higher = stronger binding
Starting sequence: DNAH7 docking peptide (human); HELFQRLDFDNDG; partner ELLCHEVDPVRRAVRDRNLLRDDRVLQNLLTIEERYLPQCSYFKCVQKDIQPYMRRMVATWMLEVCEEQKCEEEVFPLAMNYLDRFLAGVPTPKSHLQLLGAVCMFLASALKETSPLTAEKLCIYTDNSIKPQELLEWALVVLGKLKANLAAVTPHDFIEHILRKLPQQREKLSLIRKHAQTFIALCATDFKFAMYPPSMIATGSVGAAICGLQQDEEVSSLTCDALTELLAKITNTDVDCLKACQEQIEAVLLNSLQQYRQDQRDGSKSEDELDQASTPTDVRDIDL
For `AELFQRLDFDNDG [H1A]`, “normalised enrichment score” read 0.33.
`HALFQRLDFDNDG [E2A]` — result for “normalised enrichment score”: 0.175.
`HELFQRADFDNDG [L7A]`: “normalised enrichment score” -0.276.
For `HELFQRLDFDNDA [G13A]`, “normalised enrichment score” read -0.0602.
Under “normalised enrichment score”, `HELFARLDFDNDG [Q5A]` is recorded as 0.026.
Under “normalised enrichment score”, `HELFQRLDFDNAG [D12A]` is recorded as 0.0156.

Block 3
Target: Histone acetyltransferase KAT6A, winged helix 2, GST fusion (KAT6A, Homo sapiens, UniProt Q92794, residues 85-181)
Technique: protein binding microarray
Form: double-stranded DNA, one strand shown
Medium: in vitro
Concentration: not given
Setting: 8-mer, flanks averaged, mean of 2 arrays, mostly near background
Baseline: not given
Direction: higher = stronger binding
Residues (chain): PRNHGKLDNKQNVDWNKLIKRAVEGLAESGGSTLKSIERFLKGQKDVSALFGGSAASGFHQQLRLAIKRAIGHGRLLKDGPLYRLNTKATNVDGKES
`CCCGTATC` has an E-score of -0.0744.
For `CATCTTGC`, the E-score was 0.0368.
With `TGGCCCCA` the E-score was -0.141.
With `ACGGCCAT` the E-score was -0.137.
`AGTCTGCC` has an E-score of -0.0482.
`AAGGCGAG` has an E-score of 0.0719.
`AGCTGATC` has an E-score of 0.133.
For `AGCTGGGA`, the E-score was -0.0465.
For `AATGAACA`, the E-score was -0.0716.
`CAGATGAA` gave an E-score of -0.11.
With `ATCCTCGC` the E-score was 0.142.
With `ACATGGCG` the E-score was -0.167.
`AGTCGTAA` gave an E-score of -0.0261.
The E-score of `GAGTATGA` is reported as -0.0663.
The E-score of `CTGAAGAA` is reported as -0.158.
`GTTTGAGA` has an E-score of 0.0503.
`GTCCAGGA` gave an E-score of -0.067.
For `AGGTACAC`, the E-score was -0.0577.
The E-score of `CTGAATTA` is reported as -0.038.
With `CCTGCGAG` the E-score was 0.154.
The E-score of `CATGTCCG` is reported as -0.176.
`ACTACGCC` gave an E-score of -0.075.
For `GAAGCTCC`, the E-score was 0.0226.
With `CTACGTCA` the E-score was -0.0482.
`AACGGATA` gave an E-score of -0.0143.

Block 4
Target: Sal-like protein 4, full length isoform A (SALL4, Homo sapiens, UniProt Q9UJQ4, residues 1-1053)
Sequence of UniProt Q9UJQ4 (whole entry, looked up): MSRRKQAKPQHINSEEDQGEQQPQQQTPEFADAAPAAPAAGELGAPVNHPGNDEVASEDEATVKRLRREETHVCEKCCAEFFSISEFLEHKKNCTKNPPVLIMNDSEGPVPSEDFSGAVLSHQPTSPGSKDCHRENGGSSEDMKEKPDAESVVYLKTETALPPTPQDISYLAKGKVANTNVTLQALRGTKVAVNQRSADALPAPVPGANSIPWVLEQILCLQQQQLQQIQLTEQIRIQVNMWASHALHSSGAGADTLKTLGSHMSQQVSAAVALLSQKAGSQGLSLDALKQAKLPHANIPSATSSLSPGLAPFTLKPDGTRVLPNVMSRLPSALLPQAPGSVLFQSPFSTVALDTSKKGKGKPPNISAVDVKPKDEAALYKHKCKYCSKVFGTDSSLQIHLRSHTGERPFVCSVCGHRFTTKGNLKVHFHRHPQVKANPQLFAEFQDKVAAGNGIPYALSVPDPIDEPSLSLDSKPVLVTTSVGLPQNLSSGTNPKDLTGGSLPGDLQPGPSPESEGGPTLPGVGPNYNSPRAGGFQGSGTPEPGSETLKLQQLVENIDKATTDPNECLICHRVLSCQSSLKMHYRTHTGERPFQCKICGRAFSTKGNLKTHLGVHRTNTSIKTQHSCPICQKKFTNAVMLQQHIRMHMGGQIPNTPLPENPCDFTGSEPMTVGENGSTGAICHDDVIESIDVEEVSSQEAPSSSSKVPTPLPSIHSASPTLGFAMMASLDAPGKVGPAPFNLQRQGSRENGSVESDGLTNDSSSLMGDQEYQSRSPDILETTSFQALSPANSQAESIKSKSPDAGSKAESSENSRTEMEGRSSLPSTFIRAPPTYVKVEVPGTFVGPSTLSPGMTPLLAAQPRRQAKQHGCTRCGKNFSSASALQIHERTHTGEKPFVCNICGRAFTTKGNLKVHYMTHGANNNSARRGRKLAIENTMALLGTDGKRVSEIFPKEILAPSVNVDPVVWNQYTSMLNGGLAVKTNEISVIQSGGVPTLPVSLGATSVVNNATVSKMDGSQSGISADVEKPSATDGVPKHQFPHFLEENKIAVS
Technique: universal PBM
Form: double-stranded DNA, one strand shown
Medium: in vitro
Concentration: 600 nM
Setting: 8-mer, flanks averaged, mean of replicates
Direction: higher = stronger binding
For `ATCACTTC`, the E-score was 0.0442.
The E-score of `CTCAGTTC` is reported as 0.0502.
`ATTAGCAG` gave an E-score of 0.0684.
`CCGTTGAG` has an E-score of -0.161.
`ACACTAAA` gave an E-score of 0.223.
The E-score of `CACGTACC` is reported as -0.0723.
`TACGCAGA` gave an E-score of 0.11.
`GTTAAGAA` gave an E-score of 0.064.
With `CTCCGTCA` the E-score was -0.0663.
For `ATGCGCTC`, the E-score was -0.0182.
With `GTACATGA` the E-score was 0.182.
`ACGCCGTA` has an E-score of -0.0654.
The E-score of `CTCGGGCC` is reported as -0.277.
`CCTAGACG` has an E-score of -0.246.
For `CGCAATCC`, the E-score was -0.0631.
`GGAAGAAC` gave an E-score of -0.00531.
`TCTTGCCA` has an E-score of -0.0517.
The E-score of `AGGGCCAG` is reported as -0.287.
`ATAAAGAA` gave an E-score of 0.291.
The E-score of `CGGCTTTA` is reported as -0.00713.
`ACCGGCAC` has an E-score of -0.237.
For `GTCGGGGA`, the E-score was -0.327.
`TAAGCTCA` has an E-score of -0.0673.
With `GAAAAGAA` the E-score was 0.0836.
`GCACTTAC` has an E-score of -0.0765.

Block 5
Target: Ras GTPase-activating protein-binding protein 1, full length (G3BP1, Homo sapiens, UniProt Q13283)
Sequence of UniProt Q13283 (whole entry, looked up): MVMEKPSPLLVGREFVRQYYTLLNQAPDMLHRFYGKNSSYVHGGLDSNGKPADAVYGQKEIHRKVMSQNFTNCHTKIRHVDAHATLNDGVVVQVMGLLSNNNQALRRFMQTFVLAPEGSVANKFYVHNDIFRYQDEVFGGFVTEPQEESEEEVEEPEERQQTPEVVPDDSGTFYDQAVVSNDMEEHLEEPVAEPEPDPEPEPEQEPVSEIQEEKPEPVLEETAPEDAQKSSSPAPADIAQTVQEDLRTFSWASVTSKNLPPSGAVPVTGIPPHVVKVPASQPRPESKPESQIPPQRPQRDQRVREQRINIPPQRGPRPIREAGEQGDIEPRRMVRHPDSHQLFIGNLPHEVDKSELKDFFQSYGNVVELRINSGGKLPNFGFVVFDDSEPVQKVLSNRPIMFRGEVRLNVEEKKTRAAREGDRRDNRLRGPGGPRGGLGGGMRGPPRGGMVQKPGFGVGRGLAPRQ
Technique: RNA Bind-n-Seq
Form: RNA
Medium: in vitro
Concentration: 200 nM
Setting: whole 134-nt RNA, ends assumed
Added: 150 mM KCl
Baseline: input library
Direction: higher = stronger binding
Constant ends, left off below: GGGAGUUCUACAGUCCGACGAUC … UGGAAUUCUCGGGUGUCAAGG
With `GUCCUGUGCUACACAUCGUAUGUACCGAAUCGGUUUUUUGGGUUUUUUGGUUUUUUGGGAAAGUAUUAUGUUACGCCGUUCGGAUCUGCA` the log2 enrichment was -1.2.
`CACAGACAACACGCACCCACACAGACACAGAGGGAAUGGGUUGGGAUGGGGACAGGGUGCACAGCAGGGCGGGGUAGGACCCCAGCCCCU` gave a log2 enrichment of 2.02.
For `CUCAAGUCCUGUGCUACACAUCGUAUGUACCGAAUCGGGCGGGGCGGGCGGGGAAAGUAUUAUGUUACGCCGUUCGGAUCUGCACUUCCA`, the log2 enrichment was 1.35.
With `AGUCCUGUGCUACACAUCGUAUGUACCGAAUCGGGAAAAGGGAAAAGGGGAAAAGGGGAAAGUAUUAUGUUACGCCGUUCGGAUCUGCAC` the log2 enrichment was -0.0068.
The log2 enrichment of `AAGUCCUGUGCUACACAUCGUAUGUACCGAAUCGGAAAAGGAAAAGGGGAAAAGGGGAAAGUAUUAUGUUACGCCGUUCGGAUCUGCACU` is reported as -0.599.
`CCUCAAGUCCUGUGCUACACAUCGUAUGUACCGAAUCGGAGGGGAGGGAGGGGAAAGUAUUAUGUUACGCCGUUCGGAUCUGCACUUCCA` has a log2 enrichment of 1.46.
`CCUGUGCUACACAUCGUAUGUACCGAAUCGGGGUGGGGUUUUUUUGGGGAAAAAAAGGGGAAAGUAUUAUGUUACGCCGUUCGGAUCUGC` gave a log2 enrichment of 0.182.
